Assay results gathered from unrelated publications.
Compare with care: the assays were run in different laboratories. ± gives the spread as reported.

The apoptotic cells of `COC(=O)CCC(=O)Oc1ccc(/C=C/C(=O)CC(=O)/C=C/c2ccc(O)c(OC)c2)cc1OC` is reported as 39.2 ± 0.49% (MHCC97H; Annexin V/PI flow cytometry; 20 µM, 24 h).
For `COC(=O)CC[C@@H](NC(=O)[C@@H](Cc1ccc(OP(=O)(O)O)cc1)NC(=O)[C@@H](Cc1ccccc1)NC(=O)[C@@H](Cc1ccccc1)NC(=O)Cc1ccc2ccccc2c1)C(=O)OC`, the viability was 69% (SAOS-2; MTT; 10 µM, together with: alkaline phosphatase 10 U/mL).
`CC(=C(c1ccc(O)cc1)c1ccc(Cl)cc1)c1ccc(Cl)cc1` has a GI50 of 1010 nM (CAKI-1; cell growth or viability).
With `COc1ccc(C2=Nn3c(NN=C4C(=O)N(Cc5ccccc5)c5ccc(Cl)cc54)nnc3SC2)cc1` the inhibition was 17% (SK-MEL-5; cell growth or viability, SRB; 10 µM).
`C=C1[C@H](O)CC(=C/C=C2\CCC[C@]3(C)[C@@H]([C@@H](C)CCCCO)CC[C@@H]23)C[C@H]1O` gave an EC50 ratio of 2.5 (rat osteosarcoma cells; reporter gene, luciferase, item: CYP24A1 (24-hydroxylase) promoter; reference: compound over 1α,25-dihydroxyvitamin D3).
Under “cells in %G2/M phase”, `COc1ccc(C=C2SC(N3N=C(c4cccs4)CC3c3ccc(F)cc3)=NC2=O)cc1` (centres unmarked) is recorded as 3.43% (T47D; PI flow cytometry; concentration not given, 24 h).
`C[C@@H](O)[C@H](NC(=O)[C@H](CO)NC(=O)[C@H](CO)NC(=O)[C@@H](N)CCCCN)C(=O)N[C@@H](CCCNC(=N)N)C(=O)NCC(=O)N[C@@H](CCCNC(=N)N)C(=O)N[C@@H](CCCCN)C(=O)N[C@@H](CO)C(=O)N[C@@H](CO)C(=O)N[C@@H](CCCNC(=N)N)C(=O)N[C@@H](CCCNC(=N)N)C(=O)N[C@@H](CCCCN)C(=O)N[C@@H](CCCCN)C(=O)O`: “LPS effect on degranulation” “no effect” (LAD2; agonist; 10 µM, together with: Pseudomonas aeruginosa LPS 100 µg/mL, 5 min preincubation).
`CC(CCC(=O)NCc1ccc(C(=O)NO)cc1)C1CCC2C3C(O)CC4CC(O)CCC4(C)C3CCC12C` (centres unmarked) — result for ERK1/2 phosphorylation: “decreased” (polycystic liver disease cholangiocytes (human); immunoblot; 2 or 10 µM).
With `CC/C=C\C/C=C\C/C=C\C/C=C\C/C=C\C/C=C\CCC(=O)Nc1ccn(C2OC(CO)C(O)C2(F)F)c(=O)n1` (centres unmarked) the GI50 was 1180 nM (NCI-H322M; cell growth or viability, SRB).
`COc1ccc(C2=NN(C3=NC(=O)C(=Cc4ccc(O)cc4)S3)C(c3ccc(F)cc3)C2)cc1` (centres unmarked) — result for “total apoptotic cells”: 30.4% (T47D; annexin V-FITC/PI flow cytometry; concentration not given).
The potency ratio of `C=CC(=O)N1C[C@H](C)N(c2nc(OC[C@@]34CCCN3C[C@H](F)C4)nc3c(F)c(-c4ccc(F)c5sc(N)c(C#N)c45)c(C(F)(F)F)cc23)C[C@H]1C` is reported as 5 to 10 (MEF expressing KRAS G13D; pERK; reference: KRAS G12C over KRAS G13D).
`C[C@H](CS)C(=O)N1CCC[C@H]1C(=O)O` — result for “minimum effective concentration”: greater than 100 µM (hiPSC cardiac tissues 3D; active force; 15 min per concentration, paced at 1 Hz serum-free).
For `CCC(=C(c1ccc(Cl)cc1)c1ccc(OCCCN(C)C)cc1)c1ccc(OC)cc1`, “alkaline phosphatase activity” read 1.36 ± 0.97 (Ishikawa; estrogenic activity, agonist; 1 nM, 72 h, unit not given; reference: DMSO).
For `COc1cc(CNC(=O)C[C@H](C)CCC=C(C)C)ccc1OCc1cn(-c2cccc(Cl)c2)nn1`, the growth percent was 99.8% (TK-10; SRB; 10 µM, 48 h).
`COc1cc(CN2CCN(c3ccccc3Cl)CC2)c2cc3[n+](cc2c1O)CCc1cc2c(cc1-3)OCO2` has a therapeutic index of 34 (Ca-Ski and MDCK; SRB; 48 h; reference: CC50 MDCK over IC50 Ca-Ski).
`CC(=O)Oc1ccccc1C(=O)[O][Pt]([NH2])([NH2])([Cl])([Cl])[O]C(=O)CCCc1ccccc1` — result for “depolarised mitochondria cells”: 30 to 40% (PSN1; 1 µM, 24 h).
`CCC(C(=O)O)C1CCC(C)C(C(C)C(O)C(C)C(=O)C(CC)C2OC3(C=CC(NCc4cn(CCCCSC(C)=O)nn4)C4(CCC(C)(C5CCC(O)(CC)C(C)O5)O4)O3)C(C)CC2C)O1` (centres unmarked) gave a selectivity ratio of 5.3 (HMLER; cell proliferation; reference: IC50 CD24high/CD44low over IC50 CD24low/CD44high).
For `CN1CCN(C(=O)N(CCCCCCC(=O)NO)c2ccc(-c3ccc4cnn(C)c4c3)cc2)CC1`, protein level read “increased” (multiple myeloma cells; immunoblot, item: p21; 300 nM).
With `COc1cc(CNC(=O)C[C@H](C)CCC=C(C)C)ccc1OCc1cn(-c2ccc(Br)cc2)nn1` the growth percent was 64% (SK-OV-3 ovarian cancer cells; SRB; 10 µM, 48 h).
Under “minimum effective concentration”, `Cc1ccc(N(CC2=NCCN2)c2cccc(O)c2)cc1` is recorded as 30 µM (hiPSC cardiac tissues 3D; active force; 15 min per concentration, paced at 1 Hz serum-free).
For `COc1ccc([C@@H]2CC(=O)c3c(O)cc(O[C@@H]4O[C@H](CO[C@@H]5O[C@@H](C)[C@H](O)[C@@H](O)[C@H]5O)[C@@H](O)[C@H](O)[C@H]4O)cc3O2)cc1O`, the viability was 53.4% (A549; cell growth or viability, MTS; 50 µg/mL, 72 h).
`COc1cc(CNC(=O)C[C@H](C)CCC=C(C)C)ccc1OCc1cn(-c2ccccc2[N+](=O)[O-])nn1` has a growth percent of 73.7% (SN12C; SRB; 10 µM, 48 h).
`CCCCCCCCCCCCCCCC(=O)N[C@@H](CCCCN)C(=O)N[C@@H](CCCCN)C(=O)N[C@@H](CO)C(=O)N[C@@H](CCCNC(=N)N)C(=O)N[C@@H](C)C(=O)N[C@@H](CC(C)C)C(=O)N[C@@H](Cc1ccccc1)C(N)=O` — result for inhibition: “inactive” (human gel-filtered platelets; platelet aggregation; concentration not given, together with: ristocetin 1 mg/mL).
`CCC12CCc3c(c4ccccc4n3C)CCN(CC3OC31)C2` (centres unmarked) has an AKT phosphorylation of roughly 54.4% (BV-2; western blot; 25 µM, together with: LPS; reference: LPS alone).
With `COc1cc(CN2CCN(c3ccc(C(F)(F)F)cc3)CC2)c2cc3[n+](cc2c1O)CCc1cc2c(cc1-3)OCO2` the therapeutic index was 24.5 (Ca-Ski and MDCK; SRB; 48 h; reference: CC50 MDCK over IC50 Ca-Ski).
`[Cl][Au].[Se]=c1n(C23CC4CC(CC(C4)C2)C3)ccn1C12CC3CC(CC(C3)C1)C2` gave a resistance factor of 0.5 (A2780 ADR; MTT; reference: A2780 ADR over A2780).
For `O=Cc1c(O)ccc2ccccc12`, “log2 fold change” read -3.33 (HUVEC; RNA sequencing, item: TNFSF15; 75 µM, 24 h; reference: DMSO).
The selectivity ratio of `N=C(N/N=C/c1ccc(Cl)cc1)N/N=C/c1ccc(Cl)cc1` is reported as 0.8 (PANC-1; crystal violet; 72 h; reference: IC50 hTERT-HPNE over IC50 PANC-1).
For `COc1cc(CNC(=O)C[C@H](C)CCC=C(C)C)ccc1OCc1cn(-c2ccc(F)cc2)nn1`, the growth percent was 65.2% (SK-MEL-5 melanoma cells; SRB; 10 µM, 48 h).
For `CO[C@H]1N(OC)c2ccccc2[C@@]12CN=C(Nc1cc(C(F)(F)F)cc(C(F)(F)F)c1)S2` (relative stereo), the sub-G1 cells was 33.6 fold (HCT-116; PI flow cytometry; concentration not given, 72 h; reference: untreated).
For `COc1ccc([C@@H]2CC(=O)c3c(O)cc(O[C@@H]4O[C@H](CO[C@@H]5O[C@@H](C)[C@H](O)[C@@H](O)[C@H]5O)[C@@H](O[C@H]5O[C@H](CO)[C@@H](O)[C@H](O)[C@H]5O)[C@H](O)[C@H]4O)cc3O2)cc1O`, the cell count was 8330 ± 712 (MRC5; trypan blue exclusion; 150 µg/mL, 48 h).
For `C(=C/c1ccccc1)/c1ccccc1`, the EC50 was greater than 500000 nM (cord blood CD34+ cells; apoptosis, Hoechst staining; 24 h).
For `COc1cc(CNC(=O)C[C@H](C)CCC=C(C)C)ccc1OCc1cn(-c2cccc(C(F)(F)F)c2)nn1`, the growth percent was 89% (SK-OV-3 ovarian cancer cells; SRB; 10 µM, 48 h).
For `CC[C@H](C)[C@H](NC(=O)[C@H](CCCCN)NC(=O)[C@@H](NC(=O)[C@H](CCC(N)=O)NC(=O)[C@@H](N)CCCNC(=N)N)[C@@H](C)CC)C(=O)N[C@@H](Cc1c[nH]c2ccccc12)C(=O)N[C@@H](Cc1ccccc1)C(=O)N[C@@H](CCC(N)=O)C(=O)N[C@@H](CC(N)=O)C(=O)N[C@@H](CCCNC(=N)N)C(=O)N[C@@H](CCCNC(=N)N)C(=O)N[C@@H](CCSC)C(=O)N[C@@H](CCCCN)C(=O)N[C@@H](Cc1c[nH]c2ccccc12)C(=O)N[C@@H](CCCCN)C(=O)N[C@@H](CCCCN)C(=O)N[C@@H](CO)C(=O)N[C@@H](Cc1c[nH]c2ccccc12)C(=O)N[C@H](C(=O)N[C@@H](Cc1c[nH]c2ccccc12)C(=O)N[C@@H](CCC(=O)O)C(=O)N[C@@H](CCCCN)C(=O)N[C@@H](CCCCN)C(=O)N[C@@H](CC(C)C)C(=O)N[C@@H](CCC(=O)O)C(=O)N[C@H](C(=O)N[C@@H](C)C(=O)N[C@H](C(=O)N[C@@H](CC(N)=O)C(=O)N[C@@H](CC(C)C)C(=O)N[C@@H](C)C(=O)N[C@@H](Cc1c[nH]c2ccccc12)C(=O)N[C@H](C(=O)N[C@@H](C)C(=O)NCC(=O)N[C@@H](CC(N)=O)C(=O)N[C@@H](CO)C(=O)N[C@@H](CC(N)=O)C(=O)N[C@@H](CCCCN)C(=O)N[C@@H](Cc1c[nH]c2ccccc12)C(=O)N[C@H](C(=O)N[C@@H](Cc1c[nH]c2ccccc12)C(=O)N[C@@H](CCCCN)C(=O)O)[C@@H](C)O)[C@@H](C)O)C(C)C)[C@@H](C)O)[C@@H](C)O`, “decrease in cellular ATP” read 50% (CLL patient PBMCs; CellTiter-Glo; 1.5 µM, 5 min).
With `COc1cc(CNC(=O)C[C@H](C)CCC=C(C)C)ccc1O` the growth percent was 120% (TK-10; SRB; 10 µM, 48 h).
The growth of `CC(=O)OC[C@H]1O[C@@H](Sc2sc(C(=O)c3ccc(C)cc3)c(N)c2-c2nc3ccccc3s2)[C@H](OC(C)=O)[C@@H](OC(C)=O)[C@H]1OC(C)=O` is reported as 92% (NCI-H322M; SRB; 10 µM, 48 h; reference: untreated).
For `N=C(N/N=C/c1ccc(F)cc1)N/N=C/c1ccc(F)cc1`, the selectivity ratio was 0.6 (PANC-1; crystal violet; 72 h; reference: IC50 IMR-90 over IC50 PANC-1).
`Cc1ccc(CN2C(=O)/C(=N\c3ccc(Cl)cc3Br)c3ccccc32)cc1` has a S-phase cells of 39.8% (A-375; 2.7 µM, 48 h).
The CD38-positive cells of `CC(C)c1c(-c2cccc3[nH]ccc23)[nH]c(C(=O)O)c1-c1c(Cl)ccc2[nH]ccc12` is reported as 90% (TEX cells; concentration not given).
With `N=C(N/N=C/c1ccc2ccccc2c1)N/N=C/c1ccc2ccccc2c1` the selectivity ratio was 1.1 (PANC-1; crystal violet; 72 h; reference: IC50 IMR-90 over IC50 PANC-1).
For `COc1cc(CNC(=O)C[C@H](C)CCC=C(C)C)ccc1OCc1cn(-c2ccccc2Cl)nn1`, the growth percent was 83% (SK-OV-3 ovarian cancer cells; SRB; 10 µM, 48 h).

Some of these lines once more:
With `COc1cc(CN2CCN(c3ccc(C(F)(F)F)cc3)CC2)c2cc3[n+](cc2c1O)CCc1cc2c(cc1-3)OCO2` the therapeutic index was 24.5 (Ca-Ski and MDCK; SRB; 48 h; reference: CC50 MDCK over IC50 Ca-Ski).
`[Cl][Au].[Se]=c1n(C23CC4CC(CC(C4)C2)C3)ccn1C12CC3CC(CC(C3)C1)C2` gave a resistance factor of 0.5 (A2780 ADR; MTT; reference: A2780 ADR over A2780).
For `O=Cc1c(O)ccc2ccccc12`, “log2 fold change” read -3.33 (HUVEC; RNA sequencing, item: TNFSF15; 75 µM, 24 h; reference: DMSO).
The selectivity ratio of `N=C(N/N=C/c1ccc(Cl)cc1)N/N=C/c1ccc(Cl)cc1` is reported as 0.8 (PANC-1; crystal violet; 72 h; reference: IC50 hTERT-HPNE over IC50 PANC-1).
For `COc1cc(CNC(=O)C[C@H](C)CCC=C(C)C)ccc1OCc1cn(-c2ccc(F)cc2)nn1`, the growth percent was 65.2% (SK-MEL-5 melanoma cells; SRB; 10 µM, 48 h).
For `CO[C@H]1N(OC)c2ccccc2[C@@]12CN=C(Nc1cc(C(F)(F)F)cc(C(F)(F)F)c1)S2` (relative stereo), the sub-G1 cells was 33.6 fold (HCT-116; PI flow cytometry; concentration not given, 72 h; reference: untreated).
